Assay results from different studies.
Compare with care: the assays were run in different laboratories.
Organism: Staphylococcus aureus

CC[C@H](C)[C@H](NC(=O)[C@H](CC(C)C)NC(=O)[C@H](CCCNC(=N)N)NC(=O)[C@@H](N)CCCNC(=N)N)C(=O)N[C@@H](CC(C)C)C(=O)N[C@H](C(=O)N[C@@H](CCCCN)C(=O)N[C@H](C(=O)NCC(=O)N1CCC[C@H]1C(=O)N[C@H](C(=O)N[C@H](C(=O)N[C@@H](Cc1ccc(O)cc1)C(=O)N[C@@H](CCCCN)C(=O)N[C@@H](Cc1ccc(O)cc1)C(=O)N[C@@H](Cc1ccccc1)C(=O)N[C@@H](CCCCN)C(=O)N[C@@H](CCCCN)C(=O)N[C@@H](CCC(N)=O)C(=O)N[C@@H](CC(C)C)C(=O)N[C@@H](CCCCN)C(=O)N[C@@H](CCCCN)C(=O)N[C@@H](CC(C)C)C(N)=O)[C@@H](C)CC)[C@@H](C)CC)[C@@H](C)O)[C@@H](C)O  MIC (CCARM 3095, methicillin-resistant, Mueller-Hinton broth; 24 h): 32 µM
Cc1ccc2[nH]c3c(c2c1)CCCC3NCCc1ccc(Br)cc1 (stereo not shown)  MIC (broth microdilution; SG511): 4 µg/mL
C/C(=C\C(=O)OCCCCCCCCC(=O)O)C[C@@H]1OC[C@H](C[C@@H]2O[C@H]2[C@@H](C)[C@H](C)O)[C@@H](O)[C@H]1O  MIC (CRB, PBP4 overexpressor): 0.5 µg/mL
CC[C@H](C)[C@H](NC(=O)[C@H](CC(C)C)NC(=O)[C@H](CCCNC(=N)N)NC(=O)[C@@H](N)CCCNC(=N)N)C(=O)N[C@@H](CCCNC(=N)N)C(=O)N[C@@H](CCCCN)C(=O)N[C@@H](CC(C)C)C(=O)N[C@@H](CCCCN)C(=O)NCC(=O)N[C@@H](CC(C)C)C(=O)N[C@@H](CCCCN)C(=O)N[C@@H](CCCCN)C(=O)N[C@@H](Cc1ccc(O)cc1)C(=O)N[C@@H](CC(C)C)C(=O)N[C@@H](Cc1ccc(O)cc1)C(=O)N[C@@H](Cc1ccccc1)C(=O)N[C@@H](CCCCN)C(=O)N[C@@H](CC(C)C)C(=O)N[C@@H](CCC(N)=O)C(=O)N[C@@H](CC(C)C)C(=O)N[C@@H](CC(C)C)C(=O)N[C@@H](CCCCN)C(=O)N[C@@H](CCCCN)C(N)=O  MIC (broth microdilution; KCTC 1621, Mueller-Hinton broth; no added salt): 4 µM
CC[C@H](C)[C@H](N)C(=O)N[C@@H](CO)C(=O)N[C@@H](Cc1ccccc1)C(=O)N[C@@H](CC(C)C)C(=O)NCC(=O)N[C@@H](CO)C(=O)N[C@@H](CCCCN)C(=O)N[C@H](C(=O)N[C@H](C(=O)N[C@H](C(=O)N[C@@H](CC(C)C)C(=O)N[C@@H](CC(C)C)C(=O)N[C@@H](CCCCN)C(=O)N[C@@H](CCCNC(=N)N)C(=O)N[C@@H](CCCNC(=N)N)C(=O)N[C@@H](CCCCN)C(=O)N[C@@H](CCCNC(=N)N)C(=O)N[C@@H](CCCCN)C(=O)N[C@@H](CCCNC(=N)N)C(=O)N[C@@H](CCCCN)C(N)=O)C(C)C)C(C)C)C(C)C  MIC (broth microdilution; 24 h, 37 °C): 16 µM
CC[C@H](C)[C@H](NC(=O)[C@H](Cc1ccccc1)NC(=O)[C@@H](NC(=O)[C@H](Cc1c[nH]c2ccccc12)NC(=O)[C@@H]1CCCN1C(=O)[C@@H](NC(=O)[C@H](C)N)[C@@H](C)CC)[C@@H](C)CC)C(=O)N[C@@H](Cc1ccccc1)C(=O)N[C@@H](CCCNC(=N)N)C(=O)N[C@@H](CC(C)C)C(=O)N[C@@H](CC(C)C)C(=O)N[C@@H](CCCNC(=N)N)C(=O)N[C@@H](CCCCN)C(=O)NCC(N)=O  MIC (broth microdilution; ATCC 6051; 18 h, 37 °C): 0.94 µM
COc1ccnc(NC(=S)N2CCN(c3ncc(C(F)(F)F)cc3Cl)CC2)c1  MIC (MRSA USA400-MW2): 1.8 µM
CC[C@H](C)[C@H](NC(=O)[C@H](CC(=O)O)NC(=O)[C@@H](NC(=O)[C@H](CC(N)=O)NC(=O)[C@@H]1CCCN1C(=O)[C@@H](NC(=O)[C@@H](N)Cc1ccccc1)[C@@H](C)O)[C@@H](C)O)C(=O)N[C@H](C(=O)N[C@H](C(=O)N[C@@H](CCCNC(=N)N)C(=O)N[C@H](C(=O)N[C@H](C(=O)NCC(=O)NCC(=O)NCC(=O)NCC(=O)NCC(=O)N[C@@H](CC(C)C)C(=O)N[C@@H](CCCCN)C(=O)N[C@@H](CCCCN)C(=O)N[C@@H](CC(C)C)C(=O)N[C@@H](CC(C)C)C(=O)N[C@@H](CC(C)C)C(=O)N[C@@H](CC(C)C)C(=O)N[C@@H](CC(C)C)C(=O)N[C@@H](CCCCN)C(=O)N[C@@H](CCCCN)C(=O)N[C@@H](CC(C)C)C(=O)NCC(=O)O)[C@@H](C)O)[C@@H](C)O)[C@@H](C)O)[C@@H](C)CC  MIC (USA300 MRSA, Mueller-Hinton broth; 18 to 24 h, 37 °C): > 256 µg/mL
CC[C@H](C)[C@H](NC(=O)[C@H](CC(C)C)NC(=O)[C@H](CCCNC(=N)N)NC(=O)[C@@H](N)CCCNC(=N)N)C(=O)N[C@@H](CCCNC(=N)N)C(=O)N[C@H](C(=O)N[C@@H](CC(=O)O)C(=O)N[C@H](C(=O)NCC(=O)N1CCC[C@H]1C(=O)N[C@H](C(=O)N[C@H](C(=O)N[C@@H](Cc1ccc(O)cc1)C(=O)N[C@@H](CC(=O)O)C(=O)N[C@@H](Cc1ccc(O)cc1)C(=O)N[C@@H](Cc1ccccc1)C(=O)N[C@@H](CCCCN)C(=O)N[C@@H](CC(=O)O)C(=O)N[C@@H](CCC(N)=O)C(=O)N[C@@H](CC(C)C)C(=O)N[C@@H](CC(C)C)C(=O)N[C@@H](CCCCN)C(=O)N[C@@H](CCCCN)C(N)=O)[C@@H](C)CC)[C@@H](C)CC)[C@@H](C)O)[C@@H](C)O  MIC (CCARM 3090, methicillin-resistant, Mueller-Hinton broth; 24 h): > 128 µM
CN[C@H](CC(C)C)C(=O)N[C@H]1C(=O)N[C@@H](CC(N)=O)C(=O)N[C@H]2C(=O)N[C@H]3C(=O)N[C@H](C(=O)N[C@H](C(=O)O)c4cc(O)cc(O)c4-c4cc3ccc4O)[C@H](O)c3ccc(c(Cl)c3)Oc3cc2cc(c3O[C@@H]2O[C@H](CO)[C@@H](O)[C@H](O)[C@H]2O[C@H]2C[C@](C)(N)[C@H](O)[C@H](C)O2)Oc2ccc(cc2Cl)[C@H]1O  MIC (MRSA 44; 16 h): 0.3 µM
CCCCCCCCCCCCN(C)C(=O)CP(=O)(O)O  MIC (ATCC 33591 methicillin-resistant): 200 µg/mL
CC[C@H](C)[C@H](N)C(=O)N[C@@H](CC(C)C)C(=O)NCC(=O)N[C@H](CCCCN)C(=O)N[C@H](C(=O)N[C@@H](Cc1c[nH]c2ccccc12)C(=O)N[C@@H](CCCCN)C(=O)NCC(=O)N[C@H](C(=O)N[C@@H](CCCCN)C(=O)N[C@@H](CC(=O)O)C(=O)N[C@H](C(=O)N[C@@H](CC(C)C)C(N)=O)[C@@H](C)CC)[C@@H](C)CC)[C@@H](C)CC  MIC (broth microdilution; ATCC 25923, Mueller-Hinton broth; 16 h, 37 °C): 100 µM
CC[C@H](C)[C@H](NC(=O)[C@H](CCCCN)NC(=O)[C@H](CC(=O)O)NC(=O)[C@H](CC(C)C)NC(=O)[C@@H](NC(=O)[C@H](CC(N)=O)NC(=O)[C@H](CC(C)C)NC(=O)[C@@H](NC(=O)[C@H](Cc1ccccc1)NC(=O)[C@H](CCCCN)NC(=O)[C@H](CCCCN)NC(=O)CNC(=O)[C@H](C)NC(=O)[C@H](CC(N)=O)NC(=O)[C@H](CCCCN)NC(=O)[C@H](Cc1ccccc1)NC(=O)[C@H](CC(N)=O)NC(=O)[C@H](CCC(=O)O)NC(=O)[C@H](Cc1c[nH]c2ccccc12)NC(=O)[C@H](CC(C)C)NC(=O)[C@@H](N)CO)[C@@H](C)CC)[C@@H](C)CC)C(=O)N[C@@H](CCCNC(=N)N)C(N)=O  MIC (ATCC 6538; overnight, 37 °C, together with: 1 mM MgCl2): 2 µM

A few entries again:
CC[C@H](C)[C@H](N)C(=O)N[C@@H](CC(C)C)C(=O)NCC(=O)N[C@H](CCCCN)C(=O)N[C@H](C(=O)N[C@@H](Cc1c[nH]c2ccccc12)C(=O)N[C@@H](CCCCN)C(=O)NCC(=O)N[C@H](C(=O)N[C@@H](CCCCN)C(=O)N[C@@H](CC(=O)O)C(=O)N[C@H](C(=O)N[C@@H](CC(C)C)C(N)=O)[C@@H](C)CC)[C@@H](C)CC)[C@@H](C)CC  MIC (broth microdilution; ATCC 25923, Mueller-Hinton broth; 16 h, 37 °C): 100 µM
